Assay results gathered from unrelated publications.
± gives the spread as reported. Converted amounts (≈) assume the structure as drawn.
Organism: Staphylococcus aureus

CN[C@H](CC(C)C)C(=O)N[C@H]1C(=O)N[C@@H](CC(N)=O)C(=O)N[C@H]2C(=O)N[C@H]3C(=O)N[C@H](C(=O)N[C@H](C(=O)O)c4cc(O)cc(O)c4-c4cc3ccc4O)[C@H](O)c3ccc(c(Cl)c3)Oc3cc2cc(c3O[C@@H]2O[C@H](CO)[C@@H](O)[C@H](O)[C@H]2O[C@H]2C[C@](C)(NCc3ccc(C(=O)OCCCCCCN(Cc4ccccn4)Cc4ccccn4)cc3)[C@H](O)[C@H](C)O2)Oc2ccc(cc2Cl)[C@H]1O  time to complete eradication (MRSA exponential phase; 2 and 4 × MIC): 12 h
CC(C)C[C@H](NC(=O)[C@H](CC(N)=O)NC(=O)[C@H](CCCNC(=N)N)NC(=O)[C@@H](CC(C)C)NC(=O)[C@H](Cc1ccc(-c2ccccc2)cc1)NC(=O)[C@H](CC(=O)O)NC(=O)[C@H](CCCCN)NC(=O)[C@@H](CC(C)C)NC(=O)[C@H](CCCNC(=N)N)NC(=O)[C@H](CCC(N)=O)NC(=O)[C@@H](NC(=O)[C@@H](CC(C)C)NC(=O)[C@H](CCCNC(=N)N)NC(=O)[C@H](CCCCN)NC(=O)[C@H](Cc1ccc(-c2ccccc2)cc1)NC(=O)CN)C(C)C)C(=O)N[C@H](C(N)=O)C(C)C  biofilm disruption concentration (XTT; USA300; 24 h, 24 h preformed biofilm): 3.1 µM
CC(C)C[C@H](NC(=O)[C@H](CCCCN)NC(=O)[C@H](CCCNC(=N)N)NC(=O)[C@@H](CC(C)C)NC(=O)[C@H](Cc1ccc(-c2ccccc2)cc1)NC(=O)[C@H](CC(=O)O)NC(=O)[C@H](CCCCN)NC(=O)[C@@H](CC(C)C)NC(=O)[C@H](CCCNC(=N)N)NC(=O)[C@H](CCC(N)=O)NC(=O)[C@@H](NC(=O)[C@@H](CC(C)C)NC(=O)[C@H](CCCNC(=N)N)NC(=O)[C@H](CCCCN)NC(=O)[C@H](Cc1ccc(-c2ccccc2)cc1)NC(=O)CN)C(C)C)C(=O)N[C@H](C(N)=O)C(C)C  minimum antibiofilm concentration (biofilm disruption, XTT; USA300; 24 h, 24 h preformed biofilm, TSB): 12.5 µM
c1ccc(CSc2nnc(C34CC5CC(CC(C5)C3)C4)n2-c2ccccc2)cc1  inhibition zone diameter (IFO 3060; 200 µg/disc, 24 h, 37 °C): 13 mm
COC(=O)[C@H](Cc1cnc(C23CC4CC(CC(C4)C2)C3)[nH]1)NC(=O)[C@H](Cc1c[nH]c2ccccc12)NC(=O)[C@H](Cc1cnc(C23CC4CC(CC(C4)C2)C3)[nH]1)NC(=O)OC(C)(C)C  IC50: 4.22 µg/mL (≈ 4.9 µM)
O=C(CCc1cc(O)c(O)c(O)c1)NCCCCCCCCCC[P+](c1ccccc1)(c1ccccc1)c1ccccc1  K+ release (XU212; half MIC, 1 h): 1.8 ± 0.21 µg/mL
COc1cc(NC(=O)CSc2nc3ccccc3c(=O)n2-c2ccc(S(N)(=O)=O)cc2)cc(OC)c1  inhibition zone (microbial growth, well diffusion; MRSA; 500 µg/mL, 24 h): 24 mm
S=c1n(CN2CCN(c3ccccc3)CC2)nc(C23CC4CC(CC(C4)C2)C3)n1-c1ccccc1  inhibition zone diameter (IFO 3060; 200 µg/disc, 24 h, 37 °C): 19 mm
CC(=O)[O-].O.O.O.O.[Co+2].[O-]c1ccc(Br)cc1C=NCCN1CCOCC1  inhibition zone diameter (20 µL of 100 µM per disc): 15 mm
CC[P+](CC)(CC)[Au-][S][C@@H]1O[C@H](COC(C)=O)[C@@H](O[C@H]2O[C@H](COC(C)=O)[C@@H](OC(C)=O)[C@H](OC(C)=O)[C@H]2OC(C)=O)[C@H](OC(C)=O)[C@H]1OC(C)=O  fold enhancement (JE2 USA300; reference: auranofin): 2 to 4
COc1cccc(C2Nc3ccccc3C3=[O+][Cu-2]4([Cl])[O]c5c(cccc5OC)C=[N+]4N32)c1O (stereo not drawn)  lowest effective concentration (respiratory activity, inhibitor, MTT; ATCC 29213; concentration not given; at least 70% inhibition): 0.25 × MIC
[Cl-].[Cl-].[Ru+2].c1ccc2nc3c4cccnc4c4ncccc4c3nc2c1.c1ccncc1.c1ccncc1.c1ccncc1.c1ccncc1  MIC90 (LED irradiation 470 nm): 8 µM
CC[C@H](C)[C@H](NC(=O)[C@H](CCCCN)NC(=O)[C@H](CC(N)=O)NC(=O)[C@H](Cc1c[nH]c2ccccc12)NC(=O)[C@H](Cc1ccccc1)NC(=O)[C@H](CCCCN)NC(=O)[C@H](CCCNC(=N)N)NC(=O)[C@H](CC(C)C)NC(=O)[C@H](Cc1c[nH]c2ccccc12)NC(=O)[C@H](CCCCN)NC(=O)[C@H](CCCNC(=N)N)NC(=O)[C@H](CC(C)C)NC(=O)CNC(C)=O)C(=O)N[C@@H](CCCCN)C(=O)N[C@@H](CCCNC(=N)N)C(N)=O  MIC fold increase (12 h, with: plasma pretreatment; reference: MIC without plasma pretreatment): 16 fold
CCCCCCCCCC(=O)N[C@@H](Cc1c[nH]c2ccccc12)C(=O)N[C@H](CC(N)=O)C(=O)N[C@@H](CC(=O)O)C(=O)N[C@@H]1C(=O)NCC(=O)N[C@@H](CCCN)C(=O)N[C@@H](CC(=O)O)C(=O)N[C@H](C)C(=O)N[C@@H](CC(=O)O)C(=O)NCC(=O)N[C@H](CO)C(=O)N[C@@H]([C@H](C)CC(=O)O)C(=O)N[C@@H](CC(=O)c2ccccc2N)C(=O)O[C@@H]1C  biofilm reduction (XTT; MRSA ATCC BAA-1556; MIC; reference: untreated): ~29%
CNC(CC(C)C)C(=O)NC1C(=O)NC(CC(N)=O)C(=O)NC2C(=O)NC3C(=O)NC(C(=O)NC(C(=O)O)c4cc(O)cc(O)c4-c4cc3ccc4O)C(O)c3ccc(c(Cl)c3)Oc3cc2cc(c3OC2OC(CO)C(O)C(O)C2OC2CC(C)(NC(=O)CCCCCC[N+](C)(C)C)C(O)C(C)O2)Oc2ccc(cc2Cl)C1O (stereo not drawn)  MIC fold improvement (agar dilution; MRSA3; reference: vancomycin, higher = more active): 8 fold
O=[N+]([O-])c1ccc2c(c1)C=[N+]1N3C(=[O+][Cu-2]1([Cl])[O]2)c1ccccc1NC3c1cc([N+](=O)[O-])ccc1O (stereo not drawn)  inhibition (respiratory activity, MTT; ATCC 29213; 0.5 × MIC): 90.2%
CCCCCCCCCCCCCC(=O)N[C@@H](CCCNC(=N)N)C(=O)N[C@@H](CCCNC(=N)N)C(=O)N[C@@H](CCCNC(=N)N)C(N)=O  time to kill (USA300; 6.25 µM): ≤ 90 min
Oc1c(Br)cc(Br)c2nc3ccccc3nc12  MBC (Calgary Biofilm Device; MRSA 1707; biofilm): 25 µM (≈ 8.85 µg/mL)
CC(=NNC(=N)N)c1nnn(-c2ccc(C#CC3(O)CCCCC3)cc2)c1C  biofilm disruption (USA300 MRSA; 4 × MIC): ~37%
CC[C@H](C)[C@H](N)C(=O)N[C@@H](CC(C)C)C(=O)N1CCC[C@H]1C(=O)N[C@@H](Cc1c[nH]c2ccccc12)C(=O)N[C@@H](CCCCN)C(=O)N[C@@H](Cc1c[nH]c2ccccc12)C(=O)N1CCC[C@H]1C(=O)N[C@@H](Cc1c[nH]c2ccccc12)C(=O)N[C@@H](Cc1c[nH]c2ccccc12)C(=O)N1CCC[C@H]1C(=O)N[C@@H](Cc1c[nH]c2ccccc12)C(=O)N[C@@H](CCCNC(=N)N)C(=O)N[C@@H](CCCNC(=N)N)C(N)=O  time to complete kill (time-kill; Mueller-Hinton broth; 4 x MIC, 37 °C): 3 h
CCCCCCCCCC1N=C(N)N=C(N)N1c1ccccc1C.Cl (racemic)  MIC90 (broth microdilution; ATCC 11632; with: 7.4 mg/mL thymidine): 8 µM
COc1cc(NC(=O)CSc2nc3ccccc3c(=O)n2-c2ccc(S(N)(=O)=O)cc2)cc(OC)c1OC  inhibition zone (microbial growth, well diffusion; MRSA; 500 µg/mL, 24 h): 12 mm
CC(C)CNCc1cc(N(C)C)c2c(c1O)C(=O)C1=C(O)[C@]3(O)C(=O)C(C(N)=O)=C(O)[C@@H](N(C)C)[C@@H]3C[C@@H]1C2  log10 CFU reduction (MRSA 5 tetM, mouse thigh infection model; sc, 20 mg/kg, 24 h; reference: untreated control): 2.49 to 3.11 log10
COc1c2c(cc3oc(=O)cc(C)c13)C(=O)c1cc(C)cc(O)c1C2=O  zone of inhibition (MTCC 96; 100 µg/disc): < 8 mm

Repeated from above:
CC(C)CNCc1cc(N(C)C)c2c(c1O)C(=O)C1=C(O)[C@]3(O)C(=O)C(C(N)=O)=C(O)[C@@H](N(C)C)[C@@H]3C[C@@H]1C2  log10 CFU reduction (MRSA 5 tetM, mouse thigh infection model; sc, 20 mg/kg, 24 h; reference: untreated control): 2.49 to 3.11 log10
CCCCCCCCCC(=O)N[C@@H](Cc1c[nH]c2ccccc12)C(=O)N[C@H](CC(N)=O)C(=O)N[C@@H](CC(=O)O)C(=O)N[C@@H]1C(=O)NCC(=O)N[C@@H](CCCN)C(=O)N[C@@H](CC(=O)O)C(=O)N[C@H](C)C(=O)N[C@@H](CC(=O)O)C(=O)NCC(=O)N[C@H](CO)C(=O)N[C@@H]([C@H](C)CC(=O)O)C(=O)N[C@@H](CC(=O)c2ccccc2N)C(=O)O[C@@H]1C  biofilm reduction (XTT; MRSA ATCC BAA-1556; MIC; reference: untreated): ~29%
